Assay results of several laboratories.
Protocols differ between the studies behind these lines. Several values in a cell are separate wells, animals, samples, runs or records. Numbers after ± are the reported error.
Chain of UniProt P07948 (whole entry, looked up): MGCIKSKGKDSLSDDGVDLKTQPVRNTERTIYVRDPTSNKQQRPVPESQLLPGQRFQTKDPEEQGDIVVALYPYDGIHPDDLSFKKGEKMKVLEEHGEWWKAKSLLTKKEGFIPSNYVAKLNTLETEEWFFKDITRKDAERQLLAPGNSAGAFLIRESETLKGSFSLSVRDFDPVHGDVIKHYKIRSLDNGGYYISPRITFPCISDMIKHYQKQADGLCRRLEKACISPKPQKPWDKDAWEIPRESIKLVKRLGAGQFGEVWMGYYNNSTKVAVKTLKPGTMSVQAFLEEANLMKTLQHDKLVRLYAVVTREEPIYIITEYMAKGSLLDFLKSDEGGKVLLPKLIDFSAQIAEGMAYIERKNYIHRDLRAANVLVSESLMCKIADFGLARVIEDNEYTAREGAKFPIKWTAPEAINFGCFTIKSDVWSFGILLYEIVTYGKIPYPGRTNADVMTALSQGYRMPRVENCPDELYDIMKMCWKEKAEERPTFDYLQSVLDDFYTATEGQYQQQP

The fold regulation of `CCN(CC)CC(=O)Nc1cccc(-n2cc(-c3ccc4ccc(-c5cn(-c6cccc(NC(=O)CN(CC)CC)c6)nn5)cc4c3)nn2)c1` is reported as -1.28 (RCC4; PCR angiogenesis array, measured: S1PR1; 5 x IC50, 6 h, normoxia; baseline: untreated).
Under “cells with structural aberrations”, `O=C1NC2(CC2)COc2ncc(F)cc2[C@H]2COCCN2c2ccn3ncc1c3n2` is recorded as 0.3% (CHL cells; chromosomal aberration test; 75 µg/mL, 4 h, without S9 mix).
`CC(C)c1ccc(N(C)c2ccc3c(c2)OCC[C@H]3CNc2cnccc2C(=O)O)cc1` gave an IC50 of 18.9 nM (SNU668; cell growth or viability, ATP luminescence; 7 days).
The larval motion of `Cc1ccc(NC(=O)CCN2CCCCCC2)cc1C` is reported as 7.2 ± 1.2 pixels/frame (zebrafish larvae, 7 dpf; 10 µM, minute 6).
The paired-pulse ratio of `CN(C)C(=O)c1ccnc(N2Cc3cn(Cc4ccc(F)cc4F)nc3C2)n1` is reported as 1.24 and 1.06 and 1.07 and 0.989 and 1.14 and 0.872 and 1.21 (mouse, hippocampal slice, Schaffer collaterals; dose not given, interstimulus interval 1000; baseline: second over first response).
`C=CC(=O)Nc1cccc(Cn2ncc3cnc(Nc4cnn(CCOC)c4)nc32)c1`: “percent of control” 95% (HIPK4 human; binding, KINOMEscan; 100 nM; lower = stronger binding).
The IC50 of `Cc1nn(-c2cccc(N)c2)c(=O)c2cnc(Nc3ccc(N4CCNCC4)cc3)nc12` is reported as 1730 nM (LYN (Homo sapiens, UniProt P07948); inhibitor, SelectScreen kinase).
`CNS(=O)(=O)Nc1nccc(Cc2c(C)c3ccc(Oc4ncccc4F)cc3oc2=O)c1F` gave an IC50 of 53.8 nM (647-V; cell viability; 7 days).
`CN1CCCNC(=O)c2cccc(c2)C(=O)NCCCN(C)CCCNc2cccc3c2C(=O)c2cccc(c2C3=O)NCCC1` — result for “log2 fold change”: -2.11 (SAS; RNA-seq, measured: MT-ND4L mRNA; 1 µM, 6 h; baseline: untreated cells).
`C=C1CC[C@H](OCCCNC(=O)CCOCCOCCOCCOCCOCCOCCOCCOCCOCCOCCOCCOCCOCCOCCOCCOCCOCCOCCOCCOCCOCCOCCOCCOCCOCCOCCOCCOCCOCCOCCOCCOCCOCCOCCOCCOCCNC(=O)CCN2C(=O)CC(SC[C@H](NC(=O)[C@H](Cc3ccccc3)NC(=O)[C@H](CC(N)=O)NC(=O)[C@H](Cc3c[nH]cn3)NC(=O)[C@@H](NC(=O)[C@H](CC(=O)O)NC(=O)[C@H](CCC(N)=O)NC(=O)[C@H](CC(C)C)NC(=O)[C@H](CCCCN)NC(=O)[C@H](CCCCN)NC(=O)[C@H](CCCNC(=N)N)NC(=O)[C@H](CC(C)C)NC(=O)[C@H](Cc3c[nH]c4ccccc34)NC(=O)[C@H](CCC(=O)O)NC(=O)[C@@H](NC(=O)[C@H](CCCNC(=N)N)NC(=O)[C@H](CCC(=O)O)NC(=O)[C@H](CCSC)NC(=O)[C@H](CO)NC(=O)[C@H](CC(N)=O)NC(=O)[C@H](CC(C)C)NC(=O)[C@H](Cc3c[nH]cn3)NC(=O)[C@H](CCCCN)NC(=O)CNC(=O)[C@H](CC(C)C)NC(=O)[C@H](CC(N)=O)NC(=O)[C@H](Cc3c[nH]cn3)NC(=O)[C@H](CCSC)NC(=O)[C@H](CC(C)C)NC(=O)[C@H](CCC(N)=O)NC(=O)[C@@H](NC(=O)[C@H](CCC(=O)O)NC(=O)[C@H](CO)NC(=O)[C@@H](NC(=O)[C@@H](N)CO)C(C)C)[C@@H](C)CC)C(C)C)C(C)C)C(=O)O)C2=O)C/C1=C/C=C1\CCC[C@]2(C)[C@@H]([C@H](C)CCCC(C)(C)O)CC[C@@H]12` (stereo partly shown) has an AUC(0-t) of 170 ng·h/mL (male Sprague-Dawley rat, plasma; subcutaneous, 30 µg/kg, single dose).
`Cc1ncsc1-c1ccc(C(C)NC(=O)C2CC(O)CN2C(=O)C(NC(=O)CCCCCCCCCCN2CCCC(Nc3ncc(Cl)c(Nc4ccccc4S(=O)(=O)C(C)C)n3)C2)C(C)(C)C)cc1` (stereo not shown): “log2 fold change” -2.47 (22Rv1; RNA-seq, measured: TSSK2 mRNA; concentration not given; baseline: DMSO).
`CCN(C(=O)c1cc(F)ccc1Oc1nncnc1N1CCC2(C1)CN([C@H](CCCN(C)CCOC)C(C)C)C2)C(C)C` has a GI50 of > 10000 nM (SF-268; brain; 168 h).
`Cn1ncc2cc(-c3cncc(Cl)c3N3CCC4(CCNC4=O)CC3)ccc21` — result for “log2 fold change”: 2.26 (LS174T; gene expression, microarray, measured: CACNA1H mRNA; concentration not given, 24 h; baseline: untreated cells).
`C=CC(=O)N1[C@H](c2ccc3c(c2)OCO3)c2[nH]c3ccccc3c2C[C@@H]1C(=O)N1CCN(C)CC1` gave a relative co-enrichment of 116% (human cyclin E1 N112C-3xFLAG:CDK2; co-IP with TMT proteomics, measured: KPNB1; concentration not given, Q14974; baseline: wild type DMSO).
With `OC(COCC1COc2ccccc2O1)CN1CCN(c2ccccc2)CC1` (stereo not shown) the larval motion was 3.7 ± 1.2 pixels/frame (zebrafish larvae, 7 dpf; 10 µM, minute 4).
`C[C@@H](O)[C@@H]1NC(=O)[C@H](CCCCN)NC(=O)[C@@H](Cc2c[nH]c3ccccc23)NC(=O)[C@H](Cc2ccc(O)cc2)NC(=O)[C@@H](NC(=O)[C@@H](Cc2ccccc2)NC(=O)CN2CCN(CC(=O)O)CCN(CC(=O)O)CCN(CC(=O)O)CC2)CSSC[C@@H](C(=O)N[C@H](CO)[C@@H](C)O)NC1=O` [gallium-67 labelled] gave a tissue uptake of 1.69 ± 0.23 %ID/g (gamma counting; ICR mice, male, spleen; iv, 11 kBq/mouse, 3 h).
For `Nc1ncc(-c2cc(-c3cnn(CC(F)(F)F)c3)ncc2F)nc1C(=O)NC1CNCC(F)C1` (stereo not shown), the remaining binding was 40% (BRSK1; KINOMEscan; 1 µM; baseline: DMSO control).
For `CC(C)C[C@@H](NC(=O)[C@@H](CC(C)C)NC(=O)[C@@H](CC(=O)O)NC(=O)[C@@H](CC(C)C)NC(=O)[C@@H](CC(C)C)NC(=O)[C@@H](CC(C)C)NC(=O)[C@H](NC(=O)[C@@H](CC(=O)O)NC(=O)[C@H](NC(=O)[C@H]1CCCN1C(=O)[C@@H](Cc1ccccc1)NC(=O)[C@@H](CC(C)C)NC(=O)[C@@H](CC(C)C)NC(=O)[C@@H](CC(=O)O)NC(=O)[C@@H](CC(C)C)NC(=O)[C@@H](Cc1ccc(O)cc1)NC(=O)[C@@H](C)NC(=O)[C@@H](CCCNC(=N)N)NC(=O)[C@@H](Cc1c[nH]c2ccccc12)NC(=O)[C@H]1CCCN1C(=O)[C@@H](CC(N)=O)NC(=O)[C@@H](CCC(N)=O)NC(=O)[C@@H](CC(=O)O)NC(=O)[C@@H](CC(=O)O)NC(=O)[C@@H](CSC1CC(=O)N(CCNC(=O)CN2CCN(CC(=O)O)CCN(CC(=O)O)CC2)C1=O)NC(=O)[C@@H](C)N)[C@H](C)O)[C@H](C)O)C(=O)N[C@H](Cc1c[nH]c2ccccc12)C(=O)O` (stereo partly shown) [fluorine-18 labelled], the tissue uptake was 11.6 %ID/g (male nude mice, PC-3 xenograft, blood; intravenous, 4 h).
`c1ccc(-c2n[nH]cc2-c2ccnc3ccccc23)nc1`: “log2 fold change” 0.14 (CMK2 (Candida albicans); kinase binding, MIB/MS competition; Candida albicans lysate; 1 µM; baseline: DMSO).
`CCCC[C@H](NC(=O)CCCCCCCNC(=O)CN1CCN(CC(=O)O)CCN(CC(=O)O)CC1)C(=O)N[C@H]1CC(=O)NCCCC[C@@H](C(N)=O)NC(=O)[C@H](Cc2c[nH]c3ccccc23)NC(=O)[C@H](CCCNC(=N)N)NC(=O)[C@@H](Cc2ccccc2)NC(=O)[C@H](Cc2c[nH]cn2)NC1=O` [technetium-99m labelled] has a tissue uptake of 0.07 ± 0.1 %ID/g (C57 mouse, kidneys; intravenous, 0.037 MBq, 24 h).
The AUC(0-inf) of `C=C(NC(=O)c1csc(-c2nc3c(cc2O)-c2nc(cs2)C(=O)NC(C(C)O)C(=O)NC(=C(C)OC)c2nc(cs2)C(=O)NC2c4nc(cs4)C(=O)NC(COC(=O)c4c5c6c(cccc6n4O)COC(=O)C(OC4CC(C)(O)C(N(C)C)C(C)O4)C2OC5)c2nc-3cs2)n1)C(N)=O` (stereo not shown) is reported as 1600 ng·h/mL (Sprague-Dawley rats, male, plasma; intravenous infusion, 6 mg/kg, day 7, multiple dosing).
`COC1CN([C@H]2CC[C@H]([C@@]3(C)Oc4c(Cl)cc(C(=O)NCc5c(SC)cc(C)[nH]c5=O)c(C)c4O3)CC2)C1` — result for “log2 fold change”: 1.48 (RNA-seq, measured: YPEL4 mouse homolog; mouse, HT-1376 xenograft, whole blood; dose not given; baseline: vehicle).

Repeated from above:
`COC1CN([C@H]2CC[C@H]([C@@]3(C)Oc4c(Cl)cc(C(=O)NCc5c(SC)cc(C)[nH]c5=O)c(C)c4O3)CC2)C1` — result for “log2 fold change”: 1.48 (RNA-seq, measured: YPEL4 mouse homolog; mouse, HT-1376 xenograft, whole blood; dose not given; baseline: vehicle).
The paired-pulse ratio of `CN(C)C(=O)c1ccnc(N2Cc3cn(Cc4ccc(F)cc4F)nc3C2)n1` is reported as 1.24 and 1.06 and 1.07 and 0.989 and 1.14 and 0.872 and 1.21 (mouse, hippocampal slice, Schaffer collaterals; dose not given, interstimulus interval 1000; baseline: second over first response).
